Results of several laboratories.
Parts stem from different laboratories: compare values within a part only.

Study 1 — cell line: mouse MPNST tumor cells; method: high-content nuclear imaging; item: cell number; concentration: 10 µM; time: 12 h; setting: mean of 2 replicates; baseline: plate mean; reading: higher = more cells
SMILES	nuclei count [z-score]
Oc1c(CN2CCN(c3ccccn3)CC2)cc(Cl)c2cccnc12	-5.47
N#Cc1ccc(NC(=O)Nc2ccccc2Br)c2n[nH]nc12	-1.34
COc1cc(C(=O)NCC2(N(C)C)CCCC2)cc(OC)c1OCc1ccccc1	4.7
O=c1cc(-c2ccc(O)c(O)c2)oc2cc(O)cc(O)c12	1.98

Study 2 — observed: enzyme activity; action: inhibitor; concentration: 0.5 µM; baseline: control
Target: Dual specificity tyrosine-phosphorylation-regulated kinase 3 (DYRK3, Homo sapiens, UniProt O43781)
UniProt O43781, sequence (whole entry, looked up): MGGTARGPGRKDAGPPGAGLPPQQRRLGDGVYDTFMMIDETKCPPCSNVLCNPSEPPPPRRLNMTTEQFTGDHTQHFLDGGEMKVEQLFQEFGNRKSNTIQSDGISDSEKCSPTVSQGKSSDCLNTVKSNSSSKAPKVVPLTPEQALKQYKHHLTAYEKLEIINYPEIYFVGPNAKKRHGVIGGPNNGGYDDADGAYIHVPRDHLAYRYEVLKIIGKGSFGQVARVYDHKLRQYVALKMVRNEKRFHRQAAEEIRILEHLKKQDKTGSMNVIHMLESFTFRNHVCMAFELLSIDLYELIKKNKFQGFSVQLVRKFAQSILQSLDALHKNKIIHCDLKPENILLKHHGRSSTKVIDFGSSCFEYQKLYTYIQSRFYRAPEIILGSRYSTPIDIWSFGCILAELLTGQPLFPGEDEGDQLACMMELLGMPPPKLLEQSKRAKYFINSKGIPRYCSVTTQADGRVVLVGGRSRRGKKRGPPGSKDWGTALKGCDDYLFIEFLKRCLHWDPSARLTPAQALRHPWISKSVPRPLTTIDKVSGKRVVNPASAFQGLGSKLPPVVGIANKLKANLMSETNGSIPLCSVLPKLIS
Structure (SMILES)	remaining activity
Nc1[nH]nc2nc3ccccc3nc12	102%
COc1ccc(C(=O)Nc2sc3c(c2C(N)=O)CCCC3)cc1OC	98%
Cc1ccc(Nc2nccc(N(C)c3ccc4c(C)n(C)nc4c3)n2)cc1S(N)(=O)=O	95.9%
O=S(=O)(c1cccc2cnccc12)N1CCCNCC1	89.1%
CO[C@H]1C[C@@H]2CC[C@@H](C)[C@@](O)(O2)C(=O)C(=O)N2CCCC[C@H]2C(=O)O[C@H]([C@H](C)C[C@@H]2CC[C@@H](O)[C@H](OC)C2)CC(=O)[C@H](C)/C=C(\C)[C@@H](O)[C@@H](OC)C(=O)[C@H](C)C[C@H](C)/C=C/C=C/C=C/1C	105%
O=C1NC(=O)C(c2cn(CCCO)c3ncccc23)=C1c1cnccn1	79.6%
O=C(Nc1cccc(Nc2cc(Nc3cccc(C(F)(F)F)c3)ncn2)c1)C1CC1	101%
COc1cc2ncnc(Nc3ccc(Oc4ccccc4)cc3)c2cc1OC	103%
CC(C)[C@H](CO)Nc1nc(Nc2cc(N)cc(Cl)c2)c2ncn(C(C)C)c2n1	103%
Nc1ncnc2n[nH]c(Nc3ccc(F)cc3)c12	89%
COc1ccc(OC)c2c(=S)c3ccccc3[nH]c12	98.2%
NCCNc1ncc(C(N)=O)c(Nc2cccc(C(F)(F)F)c2)n1	90.9%
C#Cc1cccc(Nc2ncnc3cc(OCCOC)c(OCCOC)cc23)c1	83.5%

Study 3 — host: mouse; medium: microsomes or S9; concentration: 2 µM; time: 0.5 h
Structure (SMILES)	remaining compound
COc1cc2ccccc2cc1C(=O)N(CCN(C)C)c1nc2c(F)cccc2s1	3.15%
CCC(=O)N1CCCC1c1nc2ccccc2n1CC(=O)N(c1ccccc1)C(C)C (stereo not shown)	3.49%
Cc1nc(NC(=O)CCCCF)c(N)cc1Br	45.3%
c1ccc(-n2ncc3c2N=C(N2CCC(n4ccnc4)CC2)NC3)cc1	97.1%

Study 4 — observed: ligand displacement; concentration: 10 µM
Target: Histamine H1 receptor (HRH1, Homo sapiens, UniProt P35367)
UniProt P35367, sequence (whole entry, looked up): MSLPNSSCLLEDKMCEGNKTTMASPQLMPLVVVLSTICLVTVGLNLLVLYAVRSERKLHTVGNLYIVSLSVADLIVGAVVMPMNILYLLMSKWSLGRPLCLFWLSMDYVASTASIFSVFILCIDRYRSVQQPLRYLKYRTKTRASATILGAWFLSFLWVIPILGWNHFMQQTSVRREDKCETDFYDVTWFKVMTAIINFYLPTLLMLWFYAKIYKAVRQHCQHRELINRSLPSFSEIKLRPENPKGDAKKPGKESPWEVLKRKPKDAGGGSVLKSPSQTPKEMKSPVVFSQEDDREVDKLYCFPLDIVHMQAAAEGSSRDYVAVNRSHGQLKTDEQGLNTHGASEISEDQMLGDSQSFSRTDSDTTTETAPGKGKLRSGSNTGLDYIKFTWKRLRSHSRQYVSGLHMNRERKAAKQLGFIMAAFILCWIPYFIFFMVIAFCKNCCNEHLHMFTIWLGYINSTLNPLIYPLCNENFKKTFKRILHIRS
Compound	inhibition
c1ccc(C2CCN(c3cnc4c(N5CCOCC5)nccn34)CC2)cc1	11.2%
CC1=C(C#N)C(c2ccc3[nH]nc(C)c3c2)C(C#N)=C(C)N1	17.7%
O=C(Nc1ccc(Oc2ccc(F)cc2)cc1)N1CCc2ncccc2[C@H]1c1ccc(F)cc1	15.9%
Cn1nc(C(=O)NCc2ccc(C(=O)O)cc2)cc1-c1ccc2[nH]ccc2c1	8.74%
CN(C)c1ncnc(-c2ccc3nc(Nc4cc(CN5CCN(C(=O)CC(F)(F)F)CC5)ccn4)[nH]c3c2)c1Cl	26.4%
O=C(NCCCC1CCCCC1)c1ccc(CNC(=O)c2cnn(-c3ccccc3)c2C(F)(F)F)cc1	63%
CN(C)C(=O)c1sc2nc(N3CCC(S(C)(=O)=O)CC3)cc(C(F)(F)F)c2c1N	24.5%

Excerpt of the above (study 1):
SMILES	nuclei count [z-score]
O=c1cc(-c2ccc(O)c(O)c2)oc2cc(O)cc(O)c12	1.98
COc1cc(C(=O)NCC2(N(C)C)CCCC2)cc(OC)c1OCc1ccccc1	4.7
N#Cc1ccc(NC(=O)Nc2ccccc2Br)c2n[nH]nc12	-1.34
Oc1c(CN2CCN(c3ccccn3)CC2)cc(Cl)c2cccnc12	-5.47
